Measurements from different studies.
Parts stem from different laboratories: compare values within a part only.

Study 1
Target: Sal-like protein 4, full length isoform B (SALL4, Homo sapiens, UniProt Q9UJQ4-2, residues 1-616)
Technique: universal PBM
Form: double-stranded DNA, one strand shown
Sample: in vitro
Concentration: not given
Notes: 8-mer, flanks averaged, mean of replicates
Direction: higher = stronger binding
`GTATTCCA` has an E-score of 0.0857.
With `CTATTCAA` the E-score was 0.235.
With `AGGAAAGC` the E-score was -0.0706.
`CGCCGGGC` gave an E-score of -0.404.
With `CAGTTCGA` the E-score was -0.0237.
`CGCTTTAC` has an E-score of 0.0407.
`AGGGAACA` has an E-score of -0.0332.
`AACACGCT` gave an E-score of 0.00617.
`ACCACCGT` gave an E-score of -0.211.
With `ATATTGGG` the E-score was 0.233.
`CTACGATA` has an E-score of 0.154.
For `CCCTGGCC`, the E-score was -0.299.
`CACATAGC` has an E-score of -0.121.
The E-score of `ACTTACGG` is reported as -0.00458.
For `CTCGAGGA`, the E-score was -0.194.
`TACTAAGA` has an E-score of 0.064.
For `AAGGCATA`, the E-score was 0.222.
The E-score of `AATGTCGC` is reported as -0.0608.
`GTTTGAGA` gave an E-score of -0.0293.
The E-score of `AGATACCG` is reported as 0.0716.

Study 2
Target: Ras GTPase-activating protein-binding protein 1, full length (G3BP1, Homo sapiens, UniProt Q13283)
Sequence of UniProt Q13283 (whole entry, looked up): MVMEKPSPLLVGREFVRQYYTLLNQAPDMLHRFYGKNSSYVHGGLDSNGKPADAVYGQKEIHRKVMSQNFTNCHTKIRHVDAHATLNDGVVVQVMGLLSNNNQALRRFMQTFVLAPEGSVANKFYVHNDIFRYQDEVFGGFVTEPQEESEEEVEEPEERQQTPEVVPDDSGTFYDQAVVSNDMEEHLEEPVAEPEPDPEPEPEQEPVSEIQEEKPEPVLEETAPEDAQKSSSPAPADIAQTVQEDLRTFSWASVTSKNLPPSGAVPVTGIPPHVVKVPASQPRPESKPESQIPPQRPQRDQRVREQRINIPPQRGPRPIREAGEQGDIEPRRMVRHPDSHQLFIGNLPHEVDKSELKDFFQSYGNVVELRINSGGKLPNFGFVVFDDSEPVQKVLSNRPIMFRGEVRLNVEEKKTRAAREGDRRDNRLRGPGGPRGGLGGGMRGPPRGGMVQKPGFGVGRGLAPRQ
Technique: RNA Bind-n-Seq
Form: RNA
Sample: in vitro
Concentration: 200 nM
Notes: whole 134-nt RNA, ends assumed
Together with: 150 mM KCl
Reference: input library
Direction: higher = stronger binding
Constant ends, left off below: GGGAGUUCUACAGUCCGACGAUC … UGGAAUUCUCGGGUGUCAAGG
`UUAGAAGAACCCGAAGAACCUAAAGUGCUAACACCAGAAGAACAAUUAGCAGAUAAACUGCGGCUAAAGAAAUUACAGGAAGAGUCAGAC` gave a log2 enrichment of 0.54.
`CAAGUCCUGUGCUACACAUCGUAUGUACCGAAUCGGGUGGGAGGGUUUUUUUGGGAAAGUAUUAUGUUACGCCGUUCGGAUCUGCACUUC` has a log2 enrichment of 0.369.
With `UUCUGAGAAGGUUGCGCAGCAGCUGUGCCCGGCAGUCUAGAGGCGCAGAAGAGGAAGCCAUCGCCUGGCCCCGGCUCUCUGGACCUUGUC` the log2 enrichment was -1.13.
For `UGGCCCUGGUGGCAUGCGGGGAGGACGAGGUGGCCUCAUGGAUCGUGGUGGUCCCGGUGGAAUGUUCAGAGGUGGCCGUGGUGGAGACAG`, the log2 enrichment was 0.168.
`UGGCCCUGGUGGCAUGCGGGGAGGAAGAGGUGGCCUCAUGGAUUGUGGUGGUCCCGGUGGAAUGUUCAGAGGUGGCCGUGGUGGAGACAG` gave a log2 enrichment of 0.96.
`CUGUGCUACACAUCGUAUGUACCGAAUCGGGGCCCCCCGGGGCCCCCCGGGCCCCCCGGGGAAAGUAUUAUGUUACGCCGUUCGGAUCUG` gave a log2 enrichment of -1.01.
`UGGCCCUGGUGGCAUGCCGGGAGGAAGAGGUGGCCUCAUGGAUCGUGGUGGUCCCGGUGGAAUGUUCAGAGGUGGCCGUGGUGGAGACAG` has a log2 enrichment of 0.128.
With `CUGUGCUACACAUCGUAUGUACCGAAUCGGGGAAAAAAAGGGGUUUUUGGGGUUUUUGGGGAAAGUAUUAUGUUACGCCGUUCGGAUCUG` the log2 enrichment was -0.253.
The log2 enrichment of `CCUGCUUUUGGGGGUGACCGCCGGAGCGCGGCGUGAGCCCUCCCCCUUGGGAUCCCGCAGCUGACCAGUCGCGCUGACGGACAGACAGAC` is reported as -2.36.

Study 3
Target: RNA binding protein fox-1 homolog 2, RRM domain, GST-SBP tag (RBFOX2, Homo sapiens, UniProt O43251-10, residues 100-194)
Technique: RNA Bind-n-Seq
Form: RNA
Sample: in vitro
Concentration: 365 nM
Notes: natural RNA segment, single round, ends assumed
Reference: no-protein control
Direction: higher = stronger binding
Constant ends, left off below: GGGAGUUCUACAGUCCGACGAUC … UGGAAUUCUCGGGUGCCAA
Target sequence (chain): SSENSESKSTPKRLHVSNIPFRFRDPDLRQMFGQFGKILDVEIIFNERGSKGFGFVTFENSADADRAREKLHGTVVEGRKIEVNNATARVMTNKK
For `GUCUGACCUGGGCCUGAGAGCUGGAGAAGGUGCAGAUUCAAAGUGAGCGGCUCCUGAGGAGAGCCGCCAAGGCUGCUCGCCUUCUCCGUGGCUUCCGCAGCUACCGUCUG`, “RBNS enrichment (R)” read 0.71.
Under “RBNS enrichment (R)”, `UGGAUGCUUUAUUUGGAUGGCCUGGCAACAUCACAUUUUCUGCAUCACCCUGAGCCCCAUUUGCUUCCCAGCCCUGGAGUUUUUACCCGGCUUUGCCUGCCACCUCUGCC` is recorded as 1.19.
For `GAGGCAGAGGUGACAGUUCCCAGAGUGGGCUUUGGUGGCCAGGGAGGCAGCCUAGCCUAUGUCUGGCAGAUGAGGGCUGGCUGCCGUUUUCUGGGCUGAUGGGUGCCCUU`, “RBNS enrichment (R)” read 0.788.
`UAAAAGAACAAAGAGUGAAAUAUUGUAAAUGCUAUUAUACUGUUAUCCAUAUUACGUUGUUUCUUAUAGAUUUUUUAAAAAAAAUGUGAAAUUUUUCCACACUAUGUGUG`: “RBNS enrichment (R)” 1.04.
`GAAAGAAGAGGCCAGGGACUAGAAGAUGCACCCCUUUCCUCCUGGGAGCCCCACGCUUCAGGAGUAGACUAGAGCCACCUCACUUGUGUUCCGUGGGGUUACAUUUGCUU`: “RBNS enrichment (R)” 0.486.
`AGGAGAAGAAUUUUCAGACCCCAGCGGCUGAGUCAUGAUCUCCCUGCCGCCUCAAUGUGGUUGCAAGGCCGCUGUUCACCCACAGGGCUAAGAGCUAGCGCUGCCGCACC`: “RBNS enrichment (R)” 0.29.
For `UUCCCAGCUCUGCAUCAACACAGCAGCCUGCAGAUAACACUUGGGGGGACCUCAGCCUCUAUUCGCAACUCAUAAUCCGUAGACUACAAGAUGAAAUCUCAAUAAAUUAU`, “RBNS enrichment (R)” read 0.514.
`GGGAGCUCUCUCCCUCAUGCCUGUGGGUAUUUCUGAAAUGAAGCUGCGCCCUGUUCUGUCCUUUCCCAAAGCCCCCUUCUGCCCAUAGCAUGGAUCCAACCCAGGUCACA`: “RBNS enrichment (R)” 5.19.

Study 4
Target: Histone acetyltransferase KAT6A, both winged helices, GST fusion (KAT6A, Homo sapiens, UniProt Q92794, residues 1-181)
Technique: protein binding microarray
Form: double-stranded DNA, one strand shown
Sample: in vitro
Concentration: not given
Notes: 8-mer, flanks averaged, mean of 2 arrays, mostly near background
Reference: not given
Direction: higher = stronger binding
Construct (chain): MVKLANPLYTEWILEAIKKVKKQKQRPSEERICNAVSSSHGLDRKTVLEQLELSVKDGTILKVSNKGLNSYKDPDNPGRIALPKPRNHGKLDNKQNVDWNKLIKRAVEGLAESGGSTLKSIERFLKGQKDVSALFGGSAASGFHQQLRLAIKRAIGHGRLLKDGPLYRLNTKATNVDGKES
`ACAATTAG` has an E-score of -0.155.
With `ACTGCTCC` the E-score was -0.105.
`AGCACTAG` gave an E-score of -0.188.
`AGCAGACT` gave an E-score of -0.186.
The E-score of `CCGCTTAG` is reported as 0.169.
For `CTGTATTC`, the E-score was -0.115.
For `CGCAGGCC`, the E-score was 0.162.
`TCCACGCA` gave an E-score of 0.0386.
The E-score of `GACTCTTA` is reported as -0.195.
`CCAACTGG` has an E-score of -0.23.
`ATAGTGCC` has an E-score of -0.016.
With `ATCTACTC` the E-score was 0.00223.
`AAAACTCA` gave an E-score of -0.163.
For `ACCTTTAC`, the E-score was -0.00877.
With `GCAGGCAA` the E-score was -0.0147.
With `CTCGTCAA` the E-score was -0.0372.
For `AGAGCCGG`, the E-score was 0.166.
With `ATATATAA` the E-score was -0.0857.
With `AAATATAA` the E-score was -0.102.
`CGTGGAGA` gave an E-score of -0.0621.
With `TAAAGGTA` the E-score was -0.0803.
`GATCCACA` gave an E-score of -0.147.
`GATAAGGA` has an E-score of -0.0541.

Study 5
Target: Interferon regulatory factor 5, full length, phosphomimetic (IRF5, Homo sapiens, UniProt Q13568-2, residues 1-514, S451D/S453D/S456D/S462D)
Technique: protein-binding microarray
Form: double-stranded DNA, one strand shown
Sample: in vitro
Concentration: 940 nM top
Notes: 60-bp whole probe
Together with: salmon DNA 0.4 mg/ml
Reference: random background probes
Direction: higher = stronger binding
Constant ends, left off below: GCCTAGCAC … GTCTTGATTCGCTTGACGCTGCTG
`GACGATCTCAGTCTCAAGACGTGCTAG` — result for “fitted relative affinity”: 0.347 z-score.
`GACGGTTCCGATTTCGGGACGTGCTAG`: “fitted relative affinity” 1.14 z-score.
For `TCACCTTTGCCTCATCTTACTGTGCTA`, “fitted relative affinity” read 1.35 z-score.
`TTAGATACCGGGTTTCGATTAGTGCTA` — result for “fitted relative affinity”: 5.07 z-score.
For `TTAGGTTTCGACTATCGGTCAGTGCTA`, “fitted relative affinity” read 9.42 z-score.
`TCAACTTTCTGAATGCCACTGTGCTAG`: “fitted relative affinity” 0.696 z-score.
Under “fitted relative affinity”, `TATAGAGTAGTTTTTCAACCAGTGCTA` is recorded as -0.202 z-score.
For `GACGGACTGGACTATCGGAACGTGCTA`, “fitted relative affinity” read -0.308 z-score.
For `ATAGGTTTCGGTTTCGGTTAGTGCTAG`, “fitted relative affinity” read 15.9 z-score.
`GACGAATTCAGTTTCGAGACGTGCTAG` — result for “fitted relative affinity”: 4.35 z-score.
`GACGAAGTGGGGTTTCGAGACGTGCTA` — result for “fitted relative affinity”: 2 z-score.
Under “fitted relative affinity”, `TTGTAGATGCCTTTCTCTTGGTGCTAG` is recorded as -0.476 z-score.
Under “fitted relative affinity”, `GACGGACTGAACACTGGGGACGTGCTA` is recorded as -0.421 z-score.
`TTAGGTATCCTTTTCCTTTCGTGCTAG` — result for “fitted relative affinity”: 1.04 z-score.
Under “fitted relative affinity”, `TCATTTCTTTAACTCATACTGTGCTAG` is recorded as 1.36 z-score.
`TAATTTTTACTTTCTGAATGGTGCTAG`: “fitted relative affinity” 1.6 z-score.
`TCAGTTTTCTAAACCATACTGTGCTAG` — result for “fitted relative affinity”: 0.486 z-score.
For `GACGATTTCGGGACCGGAGACGTGCTA`, “fitted relative affinity” read 0.168 z-score.
`TCTCCTCCAGGTTCTCTGACAGTGCTA`: “fitted relative affinity” 0.774 z-score.

Some of these lines once more (study 1):
With `ATATTGGG` the E-score was 0.233.
`CTACGATA` has an E-score of 0.154.
For `CCCTGGCC`, the E-score was -0.299.
`CACATAGC` has an E-score of -0.121.
The E-score of `ACTTACGG` is reported as -0.00458.
For `CTCGAGGA`, the E-score was -0.194.
